Results from different studies.
Protocols differ between the studies behind these lines. Several values in a cell are separate wells, animals, samples, runs or records. ± gives the spread as reported.

SMILES	assay	system	conditions	how to read	measurement	value
CCCC[C@@H]1NC(=O)[C@H](Cc2ccc(O)cc2)NC(=O)[C@@H]2CCCN2C(=O)[C@H](CC(=O)O)NC(=O)[C@H](C)NC(=O)[C@H](Cc2ccccc2)NC(=O)[C@@H]2CSCCC(=O)N3CN(CN(C3)C(=O)CCSC[C@@H](C(=O)N[C@@H](C)C(N)=O)NC1=O)C(=O)CCSC[C@H](NC(C)=O)C(=O)N[C@@H](CC(C)(C)C)C(=O)N1CCC[C@H]1C(=O)N[C@@H](CCC(=O)O)C(=O)N[C@H](CCCCNC(=O)CCc1cn(CCOCCOCCOCCN(CCOCCOCCOCCC(=O)N[C@H]3CSCCC(=O)N4CN5CN(C4)C(=O)CCSC[C@H](NC(=O)[C@@H](CC(=O)O)NC(=O)[C@H](Cc4cccc6ccccc46)NC(=O)[C@@H]4CCCN4C3=O)C(=O)N[C@@H](CCSC)C(=O)N[C@@H](CCCCNC(=N)N)C(=O)N[C@@H](CC(=O)O)C(=O)N[C@@H](Cc3c[nH]c4ccccc34)C(=O)N[C@@H](CO)C(=O)N[C@@H]([C@@H](C)O)C(=O)N3CCC[C@H]3C(=O)N3C[C@H](O)C[C@H]3C(=O)N[C@@H](Cc3c[nH]c4ccccc34)C(=O)N[C@H](C(N)=O)CSCCC5=O)CCOCCOCCOCCn3cc(CCC(=O)NCCCC[C@H]4NC(=O)[C@H](CCC(=O)O)NC(=O)[C@@H]5CCCN5C(=O)[C@H](CC(C)(C)C)NC(=O)[C@@H](NC(C)=O)CSCCC(=O)N5CN6CN(C5)C(=O)CCSC[C@H](NC(=O)[C@H](Cc5ccc(O)cc5)NC(=O)[C@@H]5CCCN5C4=O)C(=O)N[C@@H](Cc4ccccc4)C(=O)N[C@@H](C)C(=O)N[C@@H](CC(=O)O)C(=O)N4CCC[C@H]4C(=O)N[C@@H](Cc4ccc(O)cc4)C(=O)N[C@@H](CCCC)C(=O)N[C@H](C(=O)N[C@@H](C)C(N)=O)CSCCC6=O)nn3)nn1)C(=O)N1CCC[C@H]1C(=O)N[C@@H](Cc1ccc(O)cc1)C(=O)N2	NanoString, item: Il12a-mRNA	mouse bearing MC38-Nectin-4 tumour, circulating white blood cells	5 mg/kg, 24 h after dosing, unit not given	reference: vehicle	mRNA level	1.84
C(=N\Cc1cc(C/N=C/c2cccs2)cc(-c2cc(C/N=C/c3cccs3)cc(C/N=C/c3cccs3)c2)c1)/c1cccs1		hACE2 mice, bronchoalveolar lavage fluid	dose not given	reference: control	IFN-gamma level	decreased
COc1ccccc1-c1n[nH]c2nc(N[C@H]3CC[C@H](NS(=O)(=O)CC(C)C)CC3)ncc12	bead binding, competition bead pull-down, item: LINJ.14.1540	Leishmania donovani extract	10 µM	reference: vehicle	relative abundance	1.27
N=C(N)NCCC[C@H](NC(=O)[C@H](Cc1c[nH]c2ccccc12)NC(=O)[C@H](CCCNC(=N)N)NC(=O)[C@H](CCCNC(=N)N)NC(=O)[C@@H]1CCCN1C(=O)[C@H](CCCCN)NC(=O)[C@@H](N)CCCNC(=N)N)C(=O)N[C@@H](Cc1c[nH]c2ccccc12)C(=O)N[C@@H](Cc1c[nH]c2ccccc12)C(=O)N1CCC[C@H]1C(=O)N[C@@H](CCCCN)C(=O)N[C@@H](CCCNC(=N)N)C(=O)N1CCC[C@H]1C(=O)O	absorbance at 734 nm		1 mg/mL, 5 min, room temperature		ABTS radical scavenging	0.724 fraction (0-1)
CCc1nnc(-c2c(OC)cc(-c3cnc4cc(-c5cnn(C)c5)ccn34)cc2OC)o1	histomorphometry	male C57BL/6J mouse, tibia	oral gavage, 40 mg/kg once daily, 3 wk		mineral apposition rate	0.924 ± 0.046 µm/day
CC(C)C[C@@H]1NC(=O)[C@@H](Cc2c[nH]c3ccccc23)NC(=O)[C@H](CCCNC(=N)N)NC(=O)[C@@H](CCC(=O)O)NC(=O)[C@H](CCC(N)=O)NC(=O)[C@@H](CCC(=O)O)NC(=O)[C@H](CCCNC(=N)N)NC(=O)[C@@H](Cc2c[nH]c3ccccc23)NC1=O	item: IL7	LDLr-/- mouse on Western diet, liver	dose not given, 4 weeks		cytokine level	230 ± 110 pg/g tissue
CO[C@H]1CC=C2CCN3CCC4=C(CC(=O)CC4)[C@]23C1	intermittent two-bottle choice	Wistar rat, 20% ethanol drinking	subcutaneous, 10 mg/kg, 6 h	reference: ethanol over total fluid intake	ethanol preference	46 ± 4%
NNC(=O)c1ccccc1	hydrazine ligation kinetics, absorbance		concentration not given, 45 s, with: 2-formylphenylboronic acid		normalised absorbance	0.78
O=C1NC2(CC2)COc2ncc(F)cc2[C@H]2COCCN2c2ccn3ncc1c3n2		Sprague-Dawley rat, female, serum	oral, 5 mg/kg/day, end of treatment, 4-week repeated-dose toxicity		albumin/globulin ratio	1.49 ± 0.17
O=S(=O)(N[C@H]1CCO[C@@H](C2c3ccccc3CCc3ccccc32)C1)c1ccc(OC(F)(F)F)cc1	H&E staining	D341-Luc, athymic nude mouse, intraventricular leptomeningeal disease model, spinal column	dose not given	reference: vehicle	metastasis area	decreased
CC1(C)C(NC(=O)C(=NOC2(C(=O)O)CC2)c2csc(N)n2)C(=O)N1OS(=O)(=O)O (stereo not drawn)	teratogenicity	zebrafish embryo	microinjection, injected 6 hpf, scored 5 dpf		EC50	> 1.69 nmol/embryo
CC(C)NCCCn1c(Sc2cc3c(cc2I)OCO3)nc2c(N)ncnc21	Western blot	mouse, MDA-MB-468 xenograft, tumour	5 mg/kg 3 times weekly		AKT decrease	57%
[Cu+2].c1cnc2c(c1)c1nccnc1c1cccnc12.c1cnc2c(c1)c1nccnc1c1cccnc12	DNA cleavage	supercoiled pUC19 DNA	100 µM, 4 h, 37 °C, no reducing agent, with: DNA 40 µM		nicked circular DNA form	98%
CCN(Cc1ccccc1)C(=O)CCc1nc(CN2CCN(C(=O)Cc3ccc(OC)c(OC)c3)CC2)no1	current clamp	DRG neurons, naive rat	1 µM		action potential amplitude	83 ± 8.57 mV
C[C@H](NCc1ccc(-c2ccc(C(F)(F)F)cc2)cc1)C(N)=O	passive avoidance, acquisition	APP/PS1 mice	oral, 10 mg/kg, 672 h, 4 weeks dosing		step-through latency	49.9 ± 21.5 s
COc1ccccc1-c1n[nH]c2nc(NC3CCN(C(=O)Cc4ccc(F)cc4F)CC3)ncc12	bead binding, competition bead pull-down, item: LINJ.31.3250	Leishmania donovani extract	10 µM	reference: vehicle	relative abundance	1.02
O=C(O)c1ccc(-c2nc(-c3ccccc3Cl)c3sccn23)cc1		mouse, spleen	dose not given		splenic vWF+ megakaryocytes	15 per high-power field and 19 per high-power field
CC(C)CC1NCCc2cc(O)c(O)cc21 (stereo not drawn)	ferrozine	cell-free	100 µM, DMSO solvent		Fe2+ chelation	95.93 ± 0.54%

Repeated from above:
SMILES	assay	system	conditions	how to read	measurement	value
CC1(C)C(NC(=O)C(=NOC2(C(=O)O)CC2)c2csc(N)n2)C(=O)N1OS(=O)(=O)O (stereo not drawn)	teratogenicity	zebrafish embryo	microinjection, injected 6 hpf, scored 5 dpf		EC50	> 1.69 nmol/embryo
COc1ccccc1-c1n[nH]c2nc(NC3CCN(C(=O)Cc4ccc(F)cc4F)CC3)ncc12	bead binding, competition bead pull-down, item: LINJ.31.3250	Leishmania donovani extract	10 µM	reference: vehicle	relative abundance	1.02
